Measurements collected from several papers.
Parts stem from different laboratories: compare values within a part only. Changes are numbered by the printed parent chain.

Study 1
Target: CCNA1, cyclin fold, Cln2 fusion (human)
Technique: yeast growth competition, sequencing
Sample: yeast
Setting: weak parent motif
Reference: not given
Direction: higher = stronger binding
Starting sequence: RBL1 docking peptide (human); GSAKRRLFGEDPP; partner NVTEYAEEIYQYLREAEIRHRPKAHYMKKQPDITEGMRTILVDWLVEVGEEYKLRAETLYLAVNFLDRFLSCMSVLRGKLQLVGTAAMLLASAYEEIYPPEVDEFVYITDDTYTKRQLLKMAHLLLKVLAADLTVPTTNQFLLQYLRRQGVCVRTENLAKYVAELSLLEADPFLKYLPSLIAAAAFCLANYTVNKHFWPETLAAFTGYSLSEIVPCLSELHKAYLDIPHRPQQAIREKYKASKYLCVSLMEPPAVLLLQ
Change | normalised enrichment score
GSNKRRLFGEDPP [A3N] | -0.122
GSAHRRLFGEDPP [K4H] | 0.249
GSAKRRLFGYDPP [E10Y] | 0.401
GSAKRRLFDEDPP [G9D] | 0.729
GSAKRRLFLEDPP [G9L] | 0.762
GSAKRRLFGEDPW [P13W] | 0.649
GSAKFRLFGEDPP [R5F] | 0.254

Study 2
Target: RNA binding protein fox-1 homolog 2, RRM domain, GST-SBP tag (RBFOX2, Homo sapiens, UniProt O43251-10, residues 100-194)
Technique: RNA Bind-n-Seq
Form: RNA
Sample: in vitro
Concentration: 365 nM
Setting: natural RNA segment, single round, ends assumed
Reference: no-protein control
Direction: higher = stronger binding
All sequences stand within: GGGAGUUCUACAGUCCGACGAUC … UGGAAUUCUCGGGUGCCAA
Strand | RBNS enrichment (R)
UUAUGGACACAAAACCAGAGCACUUGAUGAACUCGGGGUACUAGGGUCAGGGCUUAUAGCAGGAUGUCUGGCUGCACCUGGCAUGACUGUUUGUUUCUCCAAGCCUGCUU | 1.34
GCUACUGUUAAAAUCCUGAUGUUUCUGUGGAAUCCUCAGUGUUUAAUCCCACUCAAUAGUAUCAUUACAGUUUUCUGUAAGAGAAAAUAUUACUUAUUUAUCCCAGUAUU | 0.555
AGGAAAGACUGAUACAGAACGAUCGAUACAGAAACCACGCUGCCGCCACCACACCAUCACCAUCGACAGAACAGUCCUUAAUCCAGAAACCUGAAAUGAAGGAAGAGGAG | 0.502
GUAUCAUGACUCAGUAUGGUUCAAUUUCCUAGUAAGAAGUGGGGAUUUGUGUUUUUGGAGUCCUCAGCUCACAUGUCUUGUUCCUCCUUCAGCACAAGCUAGGGGAGAUC | 0.565
GAAAUAACUGCAACUAGAGAAAACUGUAUAAAAACAUUAAAUUGUCAGUAUUUUUGUAAGGUUCCAUUUUGUAAAGAGAAUAAUAUUCAAAGACUUUUGUAGCAUACAAA | 1.12
GAAAAAAAGAAAAAUAUAUUGUCCAUACUGUAAAUAAGUGUAUGCUUAUUUAUUUGGGGGGAAAACUAUACAUUAAAGGACCUUUGUCCUAAAGCUCUCUCCCAGGCCAC | 0.368

Study 3
Target: Ras GTPase-activating protein-binding protein 1, RRM domain (G3BP1, Homo sapiens, UniProt Q13283)
Sequence of UniProt Q13283 (whole entry, looked up): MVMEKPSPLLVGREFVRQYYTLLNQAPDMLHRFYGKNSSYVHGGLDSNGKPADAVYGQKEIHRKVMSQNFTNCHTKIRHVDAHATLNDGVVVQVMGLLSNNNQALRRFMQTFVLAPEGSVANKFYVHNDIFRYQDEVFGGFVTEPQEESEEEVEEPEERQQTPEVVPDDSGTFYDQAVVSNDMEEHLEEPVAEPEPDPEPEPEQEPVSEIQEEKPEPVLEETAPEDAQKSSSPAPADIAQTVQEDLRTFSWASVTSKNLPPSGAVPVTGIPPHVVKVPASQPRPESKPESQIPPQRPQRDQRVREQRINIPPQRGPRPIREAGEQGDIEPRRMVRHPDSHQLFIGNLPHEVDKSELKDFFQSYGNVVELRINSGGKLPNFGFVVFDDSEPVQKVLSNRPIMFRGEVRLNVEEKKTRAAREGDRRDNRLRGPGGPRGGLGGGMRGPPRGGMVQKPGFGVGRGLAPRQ
Technique: RNA Bind-n-Seq
Form: RNA
Sample: in vitro
Concentration: 1 µM
Setting: whole 134-nt RNA, ends assumed
Together with: 150 mM KCl
Reference: input library
Direction: higher = stronger binding
All sequences stand within: GGGAGUUCUACAGUCCGACGAUC … UGGAAUUCUCGGGUGUCAAGG
Strand | log2 enrichment
UAGGUAUUUCUGGGAAAAGCCAGCUUCUGUUUGCACUGGUCUUCACAACUCGUUACCUGGAUCUUUUUACUUCAUUUAUUUCAUUGUAUA | -0.296
CCUCAAGUCCUGUGCUACACAUCGUAUGUACCGAAUCGGUUUGGUGGUUUGGAAAGUAUUAUGUUACGCCGUUCGGAUCUGCACUUCCAG | -0.268
UGAAUGCUGAGAAUGUUGCUGGUCACCAGAUUGCCUCUGAAACACAGAUCCUUGAGGGCUCUUUGGGAAUAUCUGUAAAGUCACACUGCA | -0.0373
CACAGACAACACGCACCCACACAGACACAGAGGGAAGGGGUUGGGAUGGGGACAGGGUGCACAGCAGGGCGGGGUAGGACUCCAGCCCCU | -0.314
UGGCCCUGGUGGCAUGCGGGGAGGAAGAGGUGGCCUCAUGGAUCGUGGUGGUCCCGGUGGAAUGUUCAGAGGUUGCCGUGGUGGAGACAG | 1.45

Mixed results
Molecule | target | assay | system | conditions | scale | quantity | result
PhoQ, residues 284 288 289 292 302 303 AANNSF | PhoP, residues 12 14 15 18 19 NHFIF (Escherichia coli, UniProt P23836) | Sort-seq, measured: YFP reporter | E. coli | PhoQ-PhoP variant library, together with: 10 µM Mg2+ | reference: high Mg2+ state, higher = stronger signaling | fold induction | 13.9

For quick reference, copied from above (study 2):
Strand | RBNS enrichment (R)
GCUACUGUUAAAAUCCUGAUGUUUCUGUGGAAUCCUCAGUGUUUAAUCCCACUCAAUAGUAUCAUUACAGUUUUCUGUAAGAGAAAAUAUUACUUAUUUAUCCCAGUAUU | 0.555
GAAAAAAAGAAAAAUAUAUUGUCCAUACUGUAAAUAAGUGUAUGCUUAUUUAUUUGGGGGGAAAACUAUACAUUAAAGGACCUUUGUCCUAAAGCUCUCUCCCAGGCCAC | 0.368
GUAUCAUGACUCAGUAUGGUUCAAUUUCCUAGUAAGAAGUGGGGAUUUGUGUUUUUGGAGUCCUCAGCUCACAUGUCUUGUUCCUCCUUCAGCACAAGCUAGGGGAGAUC | 0.565
